Measurements gathered from unrelated publications.
Numbers after ± are the reported error.
U2AF2: U2AF2 148-342 (Homo sapiens, UniProt P26368)
UniProt P26368, sequence (whole entry, looked up): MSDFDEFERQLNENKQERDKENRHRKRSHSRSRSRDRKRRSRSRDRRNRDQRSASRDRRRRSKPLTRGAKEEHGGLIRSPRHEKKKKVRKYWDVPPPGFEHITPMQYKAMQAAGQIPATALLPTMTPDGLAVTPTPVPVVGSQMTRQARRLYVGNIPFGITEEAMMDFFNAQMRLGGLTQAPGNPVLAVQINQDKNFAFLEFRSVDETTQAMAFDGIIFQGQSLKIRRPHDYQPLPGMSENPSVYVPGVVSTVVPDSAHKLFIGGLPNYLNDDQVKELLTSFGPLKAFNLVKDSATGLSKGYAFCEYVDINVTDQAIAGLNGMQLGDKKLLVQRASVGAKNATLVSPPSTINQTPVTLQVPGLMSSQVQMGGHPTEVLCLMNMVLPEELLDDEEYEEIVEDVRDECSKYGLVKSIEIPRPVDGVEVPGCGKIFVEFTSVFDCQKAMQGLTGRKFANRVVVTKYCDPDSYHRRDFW
B1: enzyme (Nicotiana tabacum, UniProt A0A1S3XCJ5); chain MLPQLSNSSGSGYSWMQDNSASCGNFSRNGRKQGPLNSVAPTERAQISSVDDLYDFICSGPLINKIGLTPEKVAESIDKWIEYGFRLCRLFQLNQLALNEPQKIRLYHYYIPVFLWCEQEISQHSSKFKDNEEIPPLVIGFSAPQGCGKTTLVFALEYLFKITGRKAATLSIDDFYLTAEEQAKLRENNPGNLLLEFRGNAGSHDLSLSVETLAELSKVTKEGVKMKLPRYDKSAYNGRGDRADPSTWPEVEGPLTVILFEGWMLGFKPLPPEAVKAVDPQLETVNKNLEAYYDAWYKYVKSWIIIKIHDPSYVYQWRLQAEIAMRADGNPGMSDEEVRDFVSRYLPAYKAYLPTLYSEGPTGADPEHVLLVEIDEGRNPILGS
B2: human RAB2A; sequence looked up; chain AYAYLFKYIIIGDTGVGKSCLLLQFTDKRFQPVHDLTIGVEFGARMITIDGKQIKLQIWDTAGQESFRSITRSYYRGAAGALLVYDITRRDTFNHLTTWLEDARQHSNSNMVIMLIGNKSDLESRREVKKEEGEAFAREHGLIFMETSAKTASNVEEAFINTAKEIYEKIQEGVFDINNEANGIKIGPQHAATNATHAGNQGGQQAGGGCC
B3: enzyme S252E/S281E/S285E/S287E (Schizosaccharomyces pombe, UniProt P78804); chain MSTPYEPEFQQAYKEIVGSIESSKLFEVHPELKRVLPIISIPERVLEFRVTWEDDKGNCRVNTGYRVQFNSALGPYKGGLRFHPSVNLSILKFLGFEQIFKNALTGLPMGGGKGGSDFDPKGKSDNEIRRFSQAFMRQLFRYIGPQTDVPAGDIGVTGFVVMHMFGEYKRLRNEYSGVVTGKHMLTGGSNIRPEATGYGVVYYVKHMIEHRTKGAETLKGKRVAISGSGNVAQYAALKCIQEGAIVKSISDEKGVLIAKTAEGLVPEEIHEIMALKEKRAEIADEAELCKKHHYIAGARPWTNVGEIDIALPCATQNEVSGEEAAALIKQGCRYVAEGSNMGSSAEAVEVFEKSRASGEGCWLAPGKAANAGGVAVSGLEMAQNAQFSTWTHAEVDAKLAGIMQNIFEQSTDVASKYCDSGSNNIPSLVDGANIAGFLKVATAMQAVGDWW
B4: SCO6712 S292F/Y229F (Streptomyces coelicolor, UniProt Q9XAL8); chain AKGITARTAPAGGEVRHLKMYAEKLADGQMGYGFEKGKASVPGPLIEVNEGDTLHIEFTNTMDVRASLHVHGLDYEISSDGTAMNKSDVEPGGTRTYTWRTHKPGRRDDGTWRPGSAGYWHYHDHVVGTEHGTGGIRNGLYGPVIVRRKGDVLPDATHTIVFNDMTINNRKPHTGPDFEATVGDRVEIVMITHGEFYHTFHMHGHRWADNRTGILTGPDDPSRVIDNKITGPADSFGFQIIAGEGVGAGAWMYHCHVQFHSDMGMVGLFLVKKPDGTIPGYEPHEHGGATAKSGESGEPTGGAAAHEHEH
B5: enzyme W53F (Thermoplasma volcanium, UniProt Q978S7); chain MAFHGLVKYSDITVEGYPKIQYHGFIGNNRTAMLVAMNGYIDFGCLPNFNSNAVFSSILDKNKGGYFAIFPSDTTDVYVDQYYKEMTNVLVTEFVKNGKIILRLTDFMPDSEYGKISFPEVHRFVESFSEPIDITIDFKPTFNYGQDKPIIEKDQHGFIFTTDKESIGISSEFPLRKNSDRIFGNVKMEPRSSSWIIALYGIHHLFRTTDYKSYLRLQETTDYWRKWASSSSYAGAYHSMVMRSALALKVLFYEPTGLMVAAPTASLPEAIGGERNWDYRFTWIRDTAYVIEALSSIGYKYEATEFLYDMMDMITRDNRIRTIYSIDDSNDLEERIIDYEGYRGSRPVRIGNKAVDQLQIDQYGSIVRAIHSMAKAGGIVNSYLWDFVEQVMAKIEYLWKYPDSSIWEFRTEPKQYVYSKVMSWAAFDSAISMAKDLGLSAPIKQWKSIQDEIKKEVLEKGFDTDTNSFVQYYGSKNIDAALLRLPILGFIPANDEKFLGTLSRIEKELMVDGYLFKRYREDDGLKGDEGSFLMLTFWYIEDLILMKRLKKAREVLESVLEKANHLGLYSEEIDEKSGDFLGNFPQALSHLGVIRVAPKLEEALLKRTSKINS
B6: proteasome subunit alpha-3 (human); sequence looked up; chain SSIGTGYDLSASTFSPDGRVFQVEYAMKAVENSSTAIGIRCKDGVVFGVEKLVLSKLYEEGSNKRLFNVDRHVGMAVAGLLADARSLADIAREEASNFRSNFGYNIPLKHLADRVAMYVHAYTLYSAVRPFGCSFMLGSYSVNDGAQLYMIDPSGVSYGYWGCAIGKARQAAKTEIEKLQMKEMTCRDIVKEVAKIIYIVHDEVKDKAFELELSWVGELTNGRHEIVPKDIREEAEKYAKESLKEEDESDDDNM
B7: aspC A106G/A17N/A218G/A278L/A281T/A8Q/D18E/F210I/F212I/F350Y/G15S/G249S/I187A/I279A/I29V/I33V/I341V/I5L/I68L/I71L/L46M/M321L/M380L/N285S/N30D/N64T/S129T/S135A/S273G/S351L/T100S/V125I/V136I/V375I/Y244C (Escherichia coli, UniProt P00509); chain MFENLTAQPADPILSLNELFRADERPGKVDLGVGVYKDETGKTPVMTSVKKAEQYLLENETTKTYLGLDGLPEFGRCTQELLFGKGSALINDKRARTAQSPGGTGGLRVAADFLAKNTSVKRVWISNPTWPNHKAIFNSAGLEVREYAYYDAENHTLDFDALINSLNEAQAGDVVLFHGCCHNPTGADPTLEQWQTLAQLSVEKGWLPLIDIAYQGFGRGLEEDAEGLRAFAAMHKELIVASSCSKNFSLYNERVGACTLVAADSETVDRAFGQMKALARTNYSSPPAHGASVVATILSNDALRAIWEQELTDMRQRIQRLRQLFVNTLQEKGANRDFSFVIKQNGMFSYLGLTKEQVLRLREEFGVYAVASGRINVAGLTPDNMAPLCEAIVAVL
UniProt Q96C36, sequence (whole entry, unmodified, looked up): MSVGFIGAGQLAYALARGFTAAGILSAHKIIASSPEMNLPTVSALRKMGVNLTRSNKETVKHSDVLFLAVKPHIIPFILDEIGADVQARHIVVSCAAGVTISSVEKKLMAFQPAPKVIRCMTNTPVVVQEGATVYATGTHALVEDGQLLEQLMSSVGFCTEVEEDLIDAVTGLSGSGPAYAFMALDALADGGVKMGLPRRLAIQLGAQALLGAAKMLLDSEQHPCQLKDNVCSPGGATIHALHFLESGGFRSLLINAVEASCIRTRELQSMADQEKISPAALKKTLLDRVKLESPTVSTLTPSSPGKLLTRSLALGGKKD
UniProt Q682S0, sequence (whole entry, looked up): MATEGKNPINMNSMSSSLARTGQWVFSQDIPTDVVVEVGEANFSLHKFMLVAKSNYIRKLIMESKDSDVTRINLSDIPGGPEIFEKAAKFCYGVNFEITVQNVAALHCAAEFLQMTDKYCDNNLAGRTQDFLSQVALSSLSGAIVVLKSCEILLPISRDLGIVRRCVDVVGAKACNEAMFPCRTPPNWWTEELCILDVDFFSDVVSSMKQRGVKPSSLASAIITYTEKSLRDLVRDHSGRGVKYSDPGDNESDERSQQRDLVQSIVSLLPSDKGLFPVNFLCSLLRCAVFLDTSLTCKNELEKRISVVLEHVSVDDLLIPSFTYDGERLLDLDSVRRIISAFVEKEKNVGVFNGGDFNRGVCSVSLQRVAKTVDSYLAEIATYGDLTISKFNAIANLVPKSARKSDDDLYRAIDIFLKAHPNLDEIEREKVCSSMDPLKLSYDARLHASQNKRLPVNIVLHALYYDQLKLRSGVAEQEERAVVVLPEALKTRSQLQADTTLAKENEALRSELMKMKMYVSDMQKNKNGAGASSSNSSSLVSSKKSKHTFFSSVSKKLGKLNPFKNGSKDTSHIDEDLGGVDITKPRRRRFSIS

For `B1 (enzyme)`, the kcat was 27.6 ± 1.4 s⁻¹ (O=C(O)[C@H](O)CO; steady-state kinetics; pH 7.8, 30 °C).
For `GUCUUUGUC (ssRNA)`, the Kd was 7.6 µM (U2AF2; sequencing of bound RNA; RNA; motif only).
The kcat of `acsA (Pseudomonas chlororaphis, UniProt Q5CD72)` is reported as 0.0667 ± 0.0167 s⁻¹ (C#CCCC(=O)O; steady-state kinetics; pH 7).
With `enzyme (Bacteroides ovatus, UniProt A0AAN3A6N4)` the kcat was 21.5 ± 1.2 s⁻¹ (O=[N+]([O-])c1ccc(O[C@H]2O[C@H](CO)[C@@H](O)[C@H](O)[C@H]2O)cc1; steady-state kinetics; pH 6.6).
The kcat of `enzyme (Thermothielavioides terrestris, UniProt G2R650)` is reported as 0.869 ± 0.024 s⁻¹ (Oc1ccc(/C=C/c2cc(O)cc(O)c2)cc1; steady-state kinetics; pH 8, 45 °C).
For `B2 (human RAB2A)`, “log2 fold change” read -0.2 (CYB5R4 knockout human cells; PP4 interaction, 3xFLAG-PP4C IP-MS; concentration not given; baseline: CYB5R4 KO over parental).
The kcat of `RPT2 (Arabidopsis thaliana, UniProt Q682S0)` is reported as 0.0478 s⁻¹ (Nc1nc2c(ncn2[C@@H]2O[C@H](COP(=O)(O)OP(=O)(O)OP(=O)(O)O)[C@@H](O)[C@H]2O)c(=O)[nH]1; steady-state kinetics; pH 7.5, 30 °C).
`B3 (enzyme S252E/S281E/S285E/S287E)` has a kcat of 1.8 s⁻¹ (NC(=O)c1ccc[n+]([C@@H]2O[C@H](COP(=O)(O)OP(=O)(O)OC[C@H]3O[C@@H](n4cnc5c(N)ncnc54)[C@H](OP(=O)(O)O)[C@@H]3O)[C@@H](O)[C@H]2O)c1; steady-state kinetics; pH 7, 30 °C, apparent).
With `HNL C81L/E79H/G176S/H103V/K236M/N104A/T11G/V106F (Hevea brasiliensis)` the kcat was 0.065 ± 0.00833 s⁻¹ (CC(=O)Oc1ccc([N+](=O)[O-])cc1; steady-state kinetics; pH 7.2, 22 °C).
For `enzyme (UniProt F0RRL2)`, the kcat was 95.1 ± 6.4 s⁻¹ (OC[C@H]1O[C@@](CO)(O[C@H]2O[C@H](CO)[C@@H](O)[C@H](O)[C@H]2O)[C@@H](O)[C@@H]1O; steady-state kinetics; pH 5.5, 37 °C, apparent).
The kcat of `B4 (SCO6712 S292F/Y229F)` is reported as 2.8 ± 0.2 s⁻¹ (CCn1c(=NN=c2sc3cc(S(=O)(=O)O)ccc3n2CC)sc2cc(S(=O)(=O)O)ccc21; steady-state kinetics; pH 7, 37 °C, NaCl 150 mM, with: O2 cosubstrate).
With `B5 (enzyme W53F)` the kcat was 21.7 ± 0.1 s⁻¹ (OC[C@H]1O[C@H](O[C@H]2O[C@H](CO)[C@@H](O)[C@H](O)[C@H]2O)[C@H](O)[C@@H](O)[C@@H]1O; steady-state kinetics; pH 3.7, 30 °C).
The Kd of `UCUCUUUGA (ssRNA)` is reported as 1.46 µM (U2AF2; sequencing of bound RNA; RNA; motif only).
`B6 (proteasome subunit alpha-3)` — result for “log2 fold change”: 0.0231 (CYB5R4 knockout human cells; PP4 interaction, 3xFLAG-PP4C IP-MS; concentration not given; baseline: CYB5R4 KO over parental).
The kcat of `PYCR2 (Homo sapiens, UniProt Q96C36)` is reported as 47.9 ± 5.3 s⁻¹ (NC(=O)C1=CN([C@@H]2O[C@H](COP(=O)(O)OP(=O)(O)OC[C@H]3O[C@@H](n4cnc5c(N)ncnc54)[C@H](O)[C@@H]3O)[C@@H](O)[C@H]2O)C=CC1; steady-state kinetics; pH 7.5, 37 °C, apparent, cofactor varied, with: DL-P5C 5000 µM).
For `B7`, the kcat was 0.24 s⁻¹ (N[C@@H](Cc1ccccc1)C(=O)O; steady-state kinetics; pH 7.5, 25 °C, with: PMP 20 µM).

A few entries again:
For `B7`, the kcat was 0.24 s⁻¹ (N[C@@H](Cc1ccccc1)C(=O)O; steady-state kinetics; pH 7.5, 25 °C, with: PMP 20 µM).
